Experimental data from different studies.
Each line is one published result; not all experiments were run side by side. ± gives the spread as reported. ≈ marks a conversion by molar mass, not a printed value.
PSMB5: Proteasome Macropain subunit MB1 (PSMB5, Homo sapiens, UniProt P28074)
BCHE: Cholinesterase (BCHE, Homo sapiens, UniProt P06276)

Chains of the proteins cited; added tags and fusions are not shown. Lines headed by an entry give the natural chain unless they say otherwise; changes in a name come on top. Residues count along the entry.
UniProt P28074, whole entry, looked up: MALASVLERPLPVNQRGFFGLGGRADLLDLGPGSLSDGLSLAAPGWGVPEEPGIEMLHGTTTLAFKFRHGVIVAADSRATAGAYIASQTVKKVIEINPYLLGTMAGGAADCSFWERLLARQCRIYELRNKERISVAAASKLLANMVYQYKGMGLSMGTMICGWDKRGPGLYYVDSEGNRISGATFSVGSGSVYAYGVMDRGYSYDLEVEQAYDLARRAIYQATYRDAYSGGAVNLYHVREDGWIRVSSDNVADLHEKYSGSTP
UniProt P06276, whole entry, looked up: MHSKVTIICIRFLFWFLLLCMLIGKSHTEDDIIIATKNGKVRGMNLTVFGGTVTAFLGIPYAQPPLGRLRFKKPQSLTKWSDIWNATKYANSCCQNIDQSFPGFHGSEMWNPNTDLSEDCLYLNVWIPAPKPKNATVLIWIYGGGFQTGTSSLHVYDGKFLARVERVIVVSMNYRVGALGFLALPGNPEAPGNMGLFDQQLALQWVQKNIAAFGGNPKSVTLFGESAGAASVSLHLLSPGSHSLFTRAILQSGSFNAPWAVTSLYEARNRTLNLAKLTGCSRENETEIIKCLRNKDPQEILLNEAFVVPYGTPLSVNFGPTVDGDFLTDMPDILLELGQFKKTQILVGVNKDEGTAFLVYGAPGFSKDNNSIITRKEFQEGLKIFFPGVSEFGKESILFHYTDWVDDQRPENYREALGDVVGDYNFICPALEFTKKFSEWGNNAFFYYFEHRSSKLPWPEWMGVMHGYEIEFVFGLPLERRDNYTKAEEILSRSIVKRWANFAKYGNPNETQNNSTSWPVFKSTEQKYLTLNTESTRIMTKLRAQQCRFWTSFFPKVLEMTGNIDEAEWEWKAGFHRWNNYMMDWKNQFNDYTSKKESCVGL
UniProt P28072, whole entry, looked up: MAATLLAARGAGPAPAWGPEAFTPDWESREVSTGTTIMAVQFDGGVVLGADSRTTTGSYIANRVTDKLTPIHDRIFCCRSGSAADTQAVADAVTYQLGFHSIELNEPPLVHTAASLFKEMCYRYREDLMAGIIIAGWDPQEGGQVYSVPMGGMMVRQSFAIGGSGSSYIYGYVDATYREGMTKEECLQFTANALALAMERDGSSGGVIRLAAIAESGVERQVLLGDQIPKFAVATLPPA
UniProt Q13133, whole entry, looked up: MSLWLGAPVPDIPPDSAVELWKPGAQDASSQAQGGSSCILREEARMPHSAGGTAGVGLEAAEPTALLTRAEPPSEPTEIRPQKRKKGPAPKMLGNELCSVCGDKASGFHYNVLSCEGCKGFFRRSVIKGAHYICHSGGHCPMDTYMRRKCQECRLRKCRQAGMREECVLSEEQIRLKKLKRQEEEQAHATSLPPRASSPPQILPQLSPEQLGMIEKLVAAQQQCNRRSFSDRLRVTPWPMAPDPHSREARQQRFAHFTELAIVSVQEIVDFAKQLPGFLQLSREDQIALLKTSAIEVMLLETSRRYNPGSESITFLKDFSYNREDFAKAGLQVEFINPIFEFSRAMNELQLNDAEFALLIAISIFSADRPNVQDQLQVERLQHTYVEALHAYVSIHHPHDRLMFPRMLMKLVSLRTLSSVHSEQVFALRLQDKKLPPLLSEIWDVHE
UniProt P29320, 29-207 limits assumed: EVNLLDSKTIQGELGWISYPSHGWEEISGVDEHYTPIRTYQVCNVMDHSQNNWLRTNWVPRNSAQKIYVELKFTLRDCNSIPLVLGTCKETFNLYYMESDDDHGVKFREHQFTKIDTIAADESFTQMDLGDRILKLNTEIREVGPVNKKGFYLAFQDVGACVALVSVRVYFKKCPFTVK
UniProt Q62645, whole entry, looked up: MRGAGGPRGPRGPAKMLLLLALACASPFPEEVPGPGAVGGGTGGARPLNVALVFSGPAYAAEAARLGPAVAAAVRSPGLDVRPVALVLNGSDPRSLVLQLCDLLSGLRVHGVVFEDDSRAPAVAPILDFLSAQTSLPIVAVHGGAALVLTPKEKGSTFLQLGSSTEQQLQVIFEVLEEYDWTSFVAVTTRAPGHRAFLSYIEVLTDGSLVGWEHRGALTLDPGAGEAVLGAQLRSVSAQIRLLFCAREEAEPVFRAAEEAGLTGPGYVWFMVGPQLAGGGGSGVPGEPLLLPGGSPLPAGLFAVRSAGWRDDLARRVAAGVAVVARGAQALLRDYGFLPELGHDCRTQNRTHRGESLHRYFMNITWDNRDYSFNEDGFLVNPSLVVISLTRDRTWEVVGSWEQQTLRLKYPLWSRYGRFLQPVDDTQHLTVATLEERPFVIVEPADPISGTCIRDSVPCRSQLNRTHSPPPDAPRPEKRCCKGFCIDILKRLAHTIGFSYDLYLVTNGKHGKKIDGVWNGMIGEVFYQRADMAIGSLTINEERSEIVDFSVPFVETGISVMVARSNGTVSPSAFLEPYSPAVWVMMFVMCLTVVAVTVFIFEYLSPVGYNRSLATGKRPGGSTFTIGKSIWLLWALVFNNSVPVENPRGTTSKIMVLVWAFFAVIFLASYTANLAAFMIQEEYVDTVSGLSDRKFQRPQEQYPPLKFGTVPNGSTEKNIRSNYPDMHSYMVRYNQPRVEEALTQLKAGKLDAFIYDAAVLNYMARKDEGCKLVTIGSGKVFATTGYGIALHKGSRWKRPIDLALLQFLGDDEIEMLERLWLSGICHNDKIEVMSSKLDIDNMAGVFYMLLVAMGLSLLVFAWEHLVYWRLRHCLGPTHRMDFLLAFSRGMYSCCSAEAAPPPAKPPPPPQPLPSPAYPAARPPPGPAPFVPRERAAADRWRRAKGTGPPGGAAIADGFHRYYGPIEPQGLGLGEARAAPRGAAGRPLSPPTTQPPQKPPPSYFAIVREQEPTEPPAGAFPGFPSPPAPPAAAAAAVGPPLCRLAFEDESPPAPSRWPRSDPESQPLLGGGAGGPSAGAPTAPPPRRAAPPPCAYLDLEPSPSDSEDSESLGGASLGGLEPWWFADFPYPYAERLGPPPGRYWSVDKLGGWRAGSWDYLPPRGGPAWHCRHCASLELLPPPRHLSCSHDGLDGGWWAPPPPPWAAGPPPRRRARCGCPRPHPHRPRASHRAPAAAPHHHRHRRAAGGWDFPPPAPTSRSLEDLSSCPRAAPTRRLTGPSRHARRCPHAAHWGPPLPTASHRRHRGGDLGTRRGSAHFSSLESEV
UniProt P0A0C1, whole entry: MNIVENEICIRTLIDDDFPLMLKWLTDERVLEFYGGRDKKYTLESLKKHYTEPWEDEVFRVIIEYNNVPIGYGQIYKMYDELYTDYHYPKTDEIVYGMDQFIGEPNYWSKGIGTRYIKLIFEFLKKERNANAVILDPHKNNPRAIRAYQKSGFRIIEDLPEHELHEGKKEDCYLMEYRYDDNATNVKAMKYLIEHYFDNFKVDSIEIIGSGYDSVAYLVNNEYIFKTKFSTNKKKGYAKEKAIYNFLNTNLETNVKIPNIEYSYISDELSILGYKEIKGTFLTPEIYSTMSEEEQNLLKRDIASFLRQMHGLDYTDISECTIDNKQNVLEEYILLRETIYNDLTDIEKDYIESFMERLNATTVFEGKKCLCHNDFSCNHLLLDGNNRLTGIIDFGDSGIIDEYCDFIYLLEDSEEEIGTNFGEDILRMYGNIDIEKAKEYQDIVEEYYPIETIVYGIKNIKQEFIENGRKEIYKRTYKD
UniProt P19784, whole entry: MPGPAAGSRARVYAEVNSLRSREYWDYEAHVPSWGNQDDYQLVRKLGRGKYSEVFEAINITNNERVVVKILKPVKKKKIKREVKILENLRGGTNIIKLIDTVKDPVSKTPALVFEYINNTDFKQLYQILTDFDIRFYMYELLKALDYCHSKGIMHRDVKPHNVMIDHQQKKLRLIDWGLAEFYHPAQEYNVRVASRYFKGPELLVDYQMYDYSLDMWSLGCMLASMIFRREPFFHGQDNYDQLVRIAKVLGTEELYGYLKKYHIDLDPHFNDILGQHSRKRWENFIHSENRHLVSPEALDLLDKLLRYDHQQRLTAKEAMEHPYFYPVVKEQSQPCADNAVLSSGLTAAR
UniProt P10275, whole entry T878A: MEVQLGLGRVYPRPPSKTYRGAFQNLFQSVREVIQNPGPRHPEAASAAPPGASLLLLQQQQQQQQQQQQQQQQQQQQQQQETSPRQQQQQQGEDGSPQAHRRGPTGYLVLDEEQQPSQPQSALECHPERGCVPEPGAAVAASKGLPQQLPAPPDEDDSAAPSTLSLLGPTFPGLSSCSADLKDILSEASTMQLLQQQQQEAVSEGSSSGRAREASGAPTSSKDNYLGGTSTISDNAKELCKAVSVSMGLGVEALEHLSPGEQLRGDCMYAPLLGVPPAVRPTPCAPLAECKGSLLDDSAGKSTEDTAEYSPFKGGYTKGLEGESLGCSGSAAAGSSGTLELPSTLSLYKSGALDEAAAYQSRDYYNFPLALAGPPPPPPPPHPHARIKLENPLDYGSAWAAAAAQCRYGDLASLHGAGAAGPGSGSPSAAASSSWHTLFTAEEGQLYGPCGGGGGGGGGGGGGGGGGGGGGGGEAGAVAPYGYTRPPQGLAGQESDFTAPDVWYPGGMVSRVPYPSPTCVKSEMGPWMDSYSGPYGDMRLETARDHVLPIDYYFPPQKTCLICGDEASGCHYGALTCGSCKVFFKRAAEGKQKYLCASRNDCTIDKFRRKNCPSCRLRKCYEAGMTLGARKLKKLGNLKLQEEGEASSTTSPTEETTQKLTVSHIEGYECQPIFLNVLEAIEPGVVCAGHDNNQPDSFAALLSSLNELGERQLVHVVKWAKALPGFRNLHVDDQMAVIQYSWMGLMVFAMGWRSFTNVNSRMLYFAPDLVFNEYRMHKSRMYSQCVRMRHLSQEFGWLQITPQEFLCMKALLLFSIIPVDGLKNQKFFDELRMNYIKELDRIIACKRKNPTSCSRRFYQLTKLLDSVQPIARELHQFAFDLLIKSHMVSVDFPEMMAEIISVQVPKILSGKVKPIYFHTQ
UniProt P13945, whole entry: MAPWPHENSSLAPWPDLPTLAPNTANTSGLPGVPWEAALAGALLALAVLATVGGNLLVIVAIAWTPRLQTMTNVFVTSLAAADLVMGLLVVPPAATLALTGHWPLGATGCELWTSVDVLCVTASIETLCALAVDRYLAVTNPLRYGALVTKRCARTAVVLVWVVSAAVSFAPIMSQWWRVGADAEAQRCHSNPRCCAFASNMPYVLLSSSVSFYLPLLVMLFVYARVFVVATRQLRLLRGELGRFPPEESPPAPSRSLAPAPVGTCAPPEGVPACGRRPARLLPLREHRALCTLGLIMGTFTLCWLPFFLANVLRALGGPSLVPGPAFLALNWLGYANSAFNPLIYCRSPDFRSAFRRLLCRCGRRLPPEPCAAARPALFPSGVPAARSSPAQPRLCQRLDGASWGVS
UniProt P54756, whole entry, looked up: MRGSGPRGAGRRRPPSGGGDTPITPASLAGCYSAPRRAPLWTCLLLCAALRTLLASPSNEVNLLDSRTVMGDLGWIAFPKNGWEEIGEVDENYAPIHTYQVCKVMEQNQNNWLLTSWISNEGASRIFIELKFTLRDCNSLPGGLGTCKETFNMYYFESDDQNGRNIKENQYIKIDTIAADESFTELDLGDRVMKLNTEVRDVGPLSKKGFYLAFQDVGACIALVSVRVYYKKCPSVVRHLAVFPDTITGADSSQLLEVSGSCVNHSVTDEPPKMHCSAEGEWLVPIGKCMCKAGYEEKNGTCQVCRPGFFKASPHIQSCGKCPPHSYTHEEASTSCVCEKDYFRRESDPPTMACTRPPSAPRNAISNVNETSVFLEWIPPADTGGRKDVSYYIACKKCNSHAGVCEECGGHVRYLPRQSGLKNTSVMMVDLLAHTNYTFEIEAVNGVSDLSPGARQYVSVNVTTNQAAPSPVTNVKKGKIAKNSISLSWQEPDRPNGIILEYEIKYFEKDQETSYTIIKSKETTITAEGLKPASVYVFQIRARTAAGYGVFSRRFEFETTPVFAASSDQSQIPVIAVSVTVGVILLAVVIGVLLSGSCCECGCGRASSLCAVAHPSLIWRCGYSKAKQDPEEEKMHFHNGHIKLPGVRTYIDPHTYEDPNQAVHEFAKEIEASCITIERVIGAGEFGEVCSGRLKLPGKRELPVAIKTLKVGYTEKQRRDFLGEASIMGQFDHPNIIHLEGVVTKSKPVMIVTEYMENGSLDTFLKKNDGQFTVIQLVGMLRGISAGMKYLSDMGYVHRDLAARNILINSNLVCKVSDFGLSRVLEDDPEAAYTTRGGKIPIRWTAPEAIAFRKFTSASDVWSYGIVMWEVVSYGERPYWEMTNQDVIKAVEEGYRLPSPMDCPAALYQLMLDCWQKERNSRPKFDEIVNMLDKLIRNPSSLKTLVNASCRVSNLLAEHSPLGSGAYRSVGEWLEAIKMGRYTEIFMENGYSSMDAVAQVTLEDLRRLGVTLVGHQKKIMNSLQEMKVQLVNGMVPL
UniProt Q12908, whole entry: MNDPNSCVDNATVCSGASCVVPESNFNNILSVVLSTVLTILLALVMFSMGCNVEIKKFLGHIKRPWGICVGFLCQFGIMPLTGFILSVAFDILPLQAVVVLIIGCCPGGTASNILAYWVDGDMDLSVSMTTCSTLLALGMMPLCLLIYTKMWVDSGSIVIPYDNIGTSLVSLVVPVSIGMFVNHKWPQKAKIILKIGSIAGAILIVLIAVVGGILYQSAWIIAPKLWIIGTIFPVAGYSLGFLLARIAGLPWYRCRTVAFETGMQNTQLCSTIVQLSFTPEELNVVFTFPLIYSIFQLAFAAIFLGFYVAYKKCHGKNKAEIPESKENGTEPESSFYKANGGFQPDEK

For COc1cc(OC)cc(-c2nsc(=O)o2)c1, the kobs/[I] was 0.91 M⁻¹ s⁻¹ (Proteasome subunit beta type-6 (PSMB6, Homo sapiens, UniProt P28072); inactivation; human PA28-activated proteasome).
For Cn1cc([N+](=O)[O-])nc1COc1ccc2nc3ccc(=O)cc-3oc2c1, the MIC90 was over 256 µM (Mycobacterium tuberculosis; mc2 6206 PA-824-resistant ddn mutant; 7 days).
CC[C@H](C)[C@H]1O[C@]2(CC[C@@H]1C)C[C@@H]1C[C@@H](C/C=C(\C)[C@@H](O[C@H]3C[C@H](OC)[C@@H](O[C@H]4C[C@H](OC)[C@@H](O)[C@H](C)O4)[C@H](C)O3)[C@@H](C)/C=C/C=C3\CO[C@@H]4[C@H](O)C(C)=C[C@@H](C(=O)O1)[C@]34O)O2: “coactivator recruitment efficacy” 3.57 ± 2.67% (Oxysterols receptor LXR-alpha (NR1H3, Homo sapiens, UniProt Q13133); 0.4 µM).
With O=c1oc(-c2cccc(C(F)(F)F)c2)ns1 the kobs/[I] was 0.4 M⁻¹ s⁻¹ (PSMB5; inactivation; human PA28-activated proteasome).
COc1ccc2[nH]cc(CCNC(=O)[C@H](Cc3ccncc3)NC(=O)[C@H](Cc3ccc(Cl)cc3)NC(=O)[C@H](Cc3c[nH]c4ccc(O)cc34)NC(=O)CCCN)c2c1 gave a TΔS of 5.75 kcal/mol (Ephrin type-A receptor 3 (EPHA3, Homo sapiens, UniProt P29320); binding, isothermal titration calorimetry).
With Cc1ccc(-c2nsc(=O)o2)s1 the kobs/[I] was 148 M⁻¹ s⁻¹ (PSMB5; inactivation; human PA28-activated proteasome).
With COc1ccc(OC[C@H]2c3cccn3CC(=O)N2Cc2cccc(F)c2)cc1 the maximum potentiation was 370% (Glutamate receptor ionotropic, NMDA 2D, with GluN1 (Rattus norvegicus, UniProt Q62645); ion current, positive allosteric modulator, two-electrode voltage clamp; Xenopus oocytes expressing GluN1/GluN2D).
O=C(NOCC1CC1)c1cc(Br)c(F)c(F)c1Nc1ccc(I)cc1Cl has an efficacy of -53.6 ± 17.4% (BCHE; enzyme activity, fluorescence).
CC1=C(c2ccc(F)cc2)S(=O)(=O)N=C1N1CCC(N2CCCCC2)CC1 — result for inhibition: “no inhibition” (aacA-aphD (Staphylococcus aureus, UniProt P0A0C1); acetyltransferase activity, inhibitor; concentration not given).
CCN1CCN(Cc2ccc(NC(=O)c3ccc(C)c(/C=C/c4cnc5[nH]ccc5c4OC)c3)cc2C(F)(F)F)CC1: “log2 fold change” 0.167 log2 (Casein kinase II subunit alpha' (CSNK2A2, Homo sapiens, UniProt P19784); inhibitor, cell-based kinome screen; 5 µM; reference: vehicle).
CC1(C)S[C@@H]2CS[C@@H](CS)N2[C@H]1C(=O)O — result for “k-2 (E*I breakdown)”: 6e-08 ± 0.0004 s⁻¹ (Metallo-beta-lactamase VIM-2 (VIM-2, Escherichia coli, UniProt Q5U7L7); slow-binding inhibitor; Pseudomonas aeruginosa; with: nitrocefin).
With CCN(CC)c1ccc2c(O)c(C=Nc3ccc(CC(=O)NNc4c5c(nc6ccccc46)CCCC5)cc3)c(=O)oc2c1 the efficacy was -61.9 ± 4.45% (BCHE; enzyme activity; Triton-containing buffer).
With CCN(CC)C(=O)Oc1ccc(C(=O)Nc2cccc3cc[nH]c23)cc1 the current response was 101 ± 3.2% (Glutamate receptor ionotropic, kainate 2 (Homo sapiens, UniProt Q13002); modulator, two-electrode voltage clamp; Xenopus oocytes; 20 µM, with: 100 µM glutamate; reference: agonist alone).
With CSc1nc(Cl)cc(Sc2nnc(-c3cc(C(F)(F)F)cc(C(F)(F)F)c3)[nH]2)n1 the MIC was over 590 µg/mL (Acinetobacter baumannii; ATCC 9955; no additive).
CSCOc1ccc2nc3ccc(=O)cc-3oc2c1 has an MIC90 of 42 µM (≈ 11.5 µg/mL) (Mycobacterium tuberculosis; mc2 6206 PA-824-resistant ddn mutant; 7 days).
For C[C@]12CCC(=O)C=C1CCC1C2CC[C@]2(C)C(n3cnc4ccccc43)=CCC12 (some centres unmarked), the inhibition was 90 to 99% (Androgen receptor (AR, Homo sapiens, UniProt P10275, T878A); reporter gene, antagonist; LNCaP; 10 µM, 18 h, with: DHT 10 nM).
O=C(N/N=C/c1cc([N+](=O)[O-])ccc1O)c1ccc(O)cc1O gave a maximum inhibition of 47% (D-3-phosphoglycerate dehydrogenase (PHGDH, Homo sapiens, UniProt O43175, K58A/T60A); enzyme activity, inhibitor; K57A T59A mutant).
CCCN1CCN(c2ccc3c(c2)C2CC3CCN2C(=O)OCc2ccccc2)CC1 (centres unmarked) has a Ki of over 10 µM (Beta-3 adrenergic receptor (ADRB3, Homo sapiens, UniProt P13945); binding, radioligand binding).
Cc1ccc(-c2nsc(=O)o2)cc1 gave a kobs/[I] of 53.4 M⁻¹ s⁻¹ (PSMB5; inactivation; human PA28-activated proteasome).
CC#C/C(=N\OC[C@H]1COCCN1)c1ccc2ncnc(Nc3ccc(OCc4cccc(F)c4)c(Cl)c3)c2c1 gave an inhibition of 11% (Ephrin type-A receptor 5 (EPHA5, Homo sapiens, UniProt P54756); kinase activity; 10 µM).
CCCCCCCCCCC/C=C/c1ccc2cc(CP(=O)(O)O)ccc2c1 has a Ki' of 1.01 µM (Autotaxin (ENPP2, Homo sapiens, UniProt Q13822); inhibitor; enzyme-substrate complex).
With CC(CCC(=O)N(CCNC(=O)C(F)(F)F)CC(=O)O)[C@H]1CC[C@H]2[C@@H]3[C@H](O)C[C@@H]4C[C@H](O)CC[C@]4(C)[C@H]3C[C@H](O)[C@]12C (some centres unmarked) the Km was 73.2 ± 7 µM (Ileal sodium/bile acid cotransporter (SLC10A2, Homo sapiens, UniProt Q12908); substrate).
For Cc1ccc(S(=O)(=O)Nc2ccccc2N2CCCCC2)s1, the efficacy was -114 ± 20% (BCHE; enzyme activity, fluorescence).

A few entries again:
COc1ccc2[nH]cc(CCNC(=O)[C@H](Cc3ccncc3)NC(=O)[C@H](Cc3ccc(Cl)cc3)NC(=O)[C@H](Cc3c[nH]c4ccc(O)cc34)NC(=O)CCCN)c2c1 gave a TΔS of 5.75 kcal/mol (Ephrin type-A receptor 3 (EPHA3, Homo sapiens, UniProt P29320); binding, isothermal titration calorimetry).
With COc1ccc(OC[C@H]2c3cccn3CC(=O)N2Cc2cccc(F)c2)cc1 the maximum potentiation was 370% (Glutamate receptor ionotropic, NMDA 2D, with GluN1 (Rattus norvegicus, UniProt Q62645); ion current, positive allosteric modulator, two-electrode voltage clamp; Xenopus oocytes expressing GluN1/GluN2D).
